Published values pooled from the literature.
Lines come from different studies, so protocols differ. Several values in a cell are separate wells, animals, samples, runs or records. ± gives the spread as reported. ≈ marks a conversion by molar mass, not a printed value.

Compound | organism | test | system | conditions | how to read | quantity | result
O=C(NNc1ccc(F)c(F)c1)c1nnc(C23CC4CC(CC(C4)C2)C3)o1 | Botryosphaeria dothidea | fungal growth, inhibitor |  | 50 µg/mL |  | inhibition | 100%
N#Cc1ccc2c(ccc3oc([N+](=O)[O-])cc32)c1 | Mycobacterium marinum | REMA | ATCC BAA-535 |  |  | MIC90 | 0.25 µg/mL (≈ 1.05 µM)
CC[C@H](C)[C@H](NC(=O)[C@H](C)NC(=O)[C@H](CCCCN)NC(=O)[C@H](CC(C)C)NC(=O)[C@H](C)NC(=O)[C@@H](NC(=O)[C@H](Cc1c[nH]cn1)NC(=O)[C@H](CC(C)C)NC(=O)[C@@H](NC(=O)[C@@H](NC(=O)[C@H](CCCCN)NC(=O)[C@H](C)NC(=O)[C@H](C)NC(=O)[C@H](CO)NC(=O)[C@H](CCCCN)NC(=O)[C@H](Cc1ccccc1)NC(=O)[C@@H](NC(=O)[C@H](CCCCN)NC(=O)[C@H](CC(C)C)NC(=O)[C@H](Cc1ccccc1)NC(=O)[C@H](CO)NC(=O)[C@H](CCCCN)NC(=O)[C@H](Cc1c[nH]c2ccccc12)NC(=O)[C@H](CCCCN)NC(C)=O)[C@@H](C)O)[C@@H](C)O)C(C)C)[C@@H](C)O)C(=O)N[C@@H](CO)C(=O)N[C@@H](CO)C(N)=O | Pseudomonas aeruginosa |  | ATCC 27853 |  |  | MIC geometric mean | 4 µg/mL (≈ 1.36 µM)
Nc1ncnc2c1ncn2[C@@H]1O[C@@H]2COP(=O)(O)O[C@H]3[C@@H](O)[C@H](n4cnc5c(=O)[nH]cnc54)O[C@@H]3COP(=O)(O)O[C@H]2[C@H]1O | West Nile virus | RNA sequencing, refers to: muscle contraction, smooth, R-HSA-445355 | HFF-1 cells | concentration not given, downregulated pathway | reference: WNV-infected untreated cells | fold enrichment | 12.1
O=C(NC(=O)c1c(F)cccc1F)Nc1ccc(Cl)cc1 | Plutella xylostella | leaf dipping |  | 50 mg/L, 96 h |  | mortality | 56.7 ± 5.8%
Cn1cc(NC(=O)c2cc(NC(=O)CN=C(N)N)cn2C)cc1C(=O)NCCC(=N)N | Bacillus subtilis | bacterial cytological profiling | ATCC 6633 | concentration not given |  | cell width | 0.95 µm and 0.94 µm
CCOC(=O)c1ccc(OCCC2CCN(c3ccc(C)nn3)CC2)cc1 | rhinovirus C15a-mGL | high-content imaging | HeLa-CDHR3 C529Y | up to 1 µM |  | viral replication | no effect
COc1ccc(C[C@H](NC(=O)[C@H](C)NC(=O)CN2CCOCC2)C(=O)N[C@@H](Cc2ccccc2)C(=O)C2(C)CO2)cc1 (stereo in doubt) | Plasmodium berghei |  | ANKA, BALB/c mouse | 10 mg/kg |  | mean survival time | > 14 days
COC(=O)N[C@H](C(=O)N1CCC[C@H]1c1ncc(-c2ccc(-c3ccc(-c4cnc([C@@H]5CCCN5C(=O)[C@@H](NC(=O)OC)C(C)C)[nH]4)cc3)cc2)[nH]1)C(C)C | Hepatitis C virus |  | replicon cells | 75% effect level, with: NS5B palm site II inhibitor, ratio 2.5:1 |  | combination index | 0.6
C[C@@H]1CC[C@H]2[C@@H](C)C(=O)O[C@@H]3O[C@@]4(C)CC[C@@H]1[C@]32OO4 | Plasmodium berghei | Peters test | ANKA, mice | oral, 4 x 30 mg/kg |  | mean survival time | 9 days
Cn1c(=O)ccc2ccc(F)c(CCNC[C@H]3CN(c4cnc5c(n4)NC(=O)CO5)C(=O)O3)c21 | Haemophilus influenzae |  |  |  |  | MIC90 | < 0.015 µg/mL
CCCCN(CCCC)CC(O)c1cc(Cl)cc2c1-c1ccc(Cl)cc1/C2=C/c1ccc(Cl)cc1 (stereo not shown) | Plasmodium berghei | Peters suppressive test | ANKA, infected mice | oral, 4 x 30 mg/kg, day 4 | reference: untreated control | parasitemia reduction | 99.8%
C[C@H]1COCCN1c1nc(NCc2cccnc2C(F)(F)F)c2cccnc2n1 | Brugia malayi |  | SCID mouse, peritoneal cavity | dose not given, 6 weeks post-treatment, dosing x14d |  | median microfilaria count | 0 microfilariae per mouse

Repeated from above:
Compound | organism | test | system | conditions | how to read | quantity | result
CCOC(=O)c1ccc(OCCC2CCN(c3ccc(C)nn3)CC2)cc1 | rhinovirus C15a-mGL | high-content imaging | HeLa-CDHR3 C529Y | up to 1 µM |  | viral replication | no effect
